# Values quoted from earlier work as cited in several papers.
# Each line is one published result; not all experiments were run side by side.
# Chain of UniProt Q13464 (whole entry, looked up): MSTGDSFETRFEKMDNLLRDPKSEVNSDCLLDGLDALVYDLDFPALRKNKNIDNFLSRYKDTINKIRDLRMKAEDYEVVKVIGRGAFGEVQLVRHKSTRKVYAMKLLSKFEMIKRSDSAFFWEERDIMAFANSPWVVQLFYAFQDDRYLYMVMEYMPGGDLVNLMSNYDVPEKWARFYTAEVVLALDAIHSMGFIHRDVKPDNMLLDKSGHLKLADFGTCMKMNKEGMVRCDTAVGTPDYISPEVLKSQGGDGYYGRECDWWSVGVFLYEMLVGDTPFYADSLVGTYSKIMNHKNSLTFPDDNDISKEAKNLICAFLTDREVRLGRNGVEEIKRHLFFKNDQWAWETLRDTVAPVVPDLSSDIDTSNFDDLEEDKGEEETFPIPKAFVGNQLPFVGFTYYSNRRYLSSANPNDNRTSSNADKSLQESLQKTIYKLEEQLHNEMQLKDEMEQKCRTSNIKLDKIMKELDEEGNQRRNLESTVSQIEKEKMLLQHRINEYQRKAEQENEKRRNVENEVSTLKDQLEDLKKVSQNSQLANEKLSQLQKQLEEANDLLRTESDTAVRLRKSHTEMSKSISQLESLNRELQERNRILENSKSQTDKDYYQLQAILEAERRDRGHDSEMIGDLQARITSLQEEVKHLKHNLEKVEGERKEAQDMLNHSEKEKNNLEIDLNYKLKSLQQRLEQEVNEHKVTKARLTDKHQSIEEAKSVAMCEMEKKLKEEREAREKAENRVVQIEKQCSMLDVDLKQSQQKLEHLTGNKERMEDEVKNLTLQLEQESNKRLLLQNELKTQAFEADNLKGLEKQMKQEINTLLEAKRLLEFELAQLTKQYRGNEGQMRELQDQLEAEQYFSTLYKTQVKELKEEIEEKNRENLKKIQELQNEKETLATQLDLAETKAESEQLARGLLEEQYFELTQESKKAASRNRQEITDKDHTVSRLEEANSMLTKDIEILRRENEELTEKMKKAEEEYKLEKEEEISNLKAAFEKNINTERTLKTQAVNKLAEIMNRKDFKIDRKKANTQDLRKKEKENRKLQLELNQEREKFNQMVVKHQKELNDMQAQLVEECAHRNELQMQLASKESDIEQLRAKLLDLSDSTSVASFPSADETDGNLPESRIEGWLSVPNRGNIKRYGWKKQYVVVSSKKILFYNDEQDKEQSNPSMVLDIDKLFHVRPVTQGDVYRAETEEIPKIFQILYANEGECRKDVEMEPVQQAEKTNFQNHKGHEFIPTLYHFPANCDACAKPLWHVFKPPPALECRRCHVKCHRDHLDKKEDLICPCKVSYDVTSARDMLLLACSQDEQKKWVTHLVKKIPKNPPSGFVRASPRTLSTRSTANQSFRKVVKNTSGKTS
SMILES,tested on,assay,system,setting,how to read,quantity,value
Cc1cc(C)c(CNC(=O)c2cc(Cl)c3c(c2C)O[C@@](C)([C@H]2CC[C@H](N(C)C)CC2)O3)c(=O)[nH]1,,,"human, plasma",,,fraction unbound,0.0548
CCC(C)n1ncn(-c2ccc(N3CCN(c4ccc(OCC5COC(Cn6cncn6)(c6ccc(Cl)cc6Cl)O5)cc4)CC3)cc2)c1=O (centres unmarked),,,human,capsule fed,,fraction absorbed,0.59
Cc1nn(C)cc1S(=O)(=O)NC(=O)c1ccc(-n2ccc(OCC(C)(C)C(F)(F)F)n2)nc1N1C[C@@H](C)CC1(C)C,,,"human, plasma",,,fraction unbound,0.00704
Nc1cc(C(F)(F)F)c(-c2nc(N3CCOCC3)nc(N3CCOCC3)n2)cn1,"Rho-associated protein kinase 1 (ROCK1, Homo sapiens, UniProt Q13464)",enzyme activity,,10 µM,relative to: untreated,remaining activity,100%
CC(C)(CO)c1cc2cc(NC(=O)C3(c4ccc5c(c4)OC(F)(F)O5)CC3)c(F)cc2n1C[C@@H](O)CO,,,human,,,"gut wall elimination, fraction escaping",0.95
C[C@@H](O)[C@H]1C(=O)N2C(C(=O)O)=C(S[C@@H]3CN[C@H](C(=O)N(C)C)C3)[C@H](C)[C@H]12,,,human patients,,,fraction excreted in urine,48%
C[C@H](N[C@@H](CCc1ccccc1)C(=O)O)C(=O)N1CCC[C@H]1C(=O)O,,,human,,,fraction absorbed,18%
C[C@@H](Oc1ccc(S(C)(=O)=O)cc1C(=O)N1C[C@@H]2C[C@]2(c2cc(C(F)(F)F)on2)C1)C(F)(F)F,,,"human, liver",,,fraction metabolised by CYP3A4,≥ 90%
COc1ccccc1OCCNCC(O)COc1cccc2[nH]c3ccccc3c12 (centres unmarked),,,human,,,fraction absorbed,80%
C=CC[C@@H]1/C=C(\C)C[C@H](C)C[C@H](OC)[C@H]2O[C@@](O)(C(=O)C(=O)N3CCCC[C@H]3C(=O)O[C@H](/C(C)=C/[C@@H]3CC[C@@H](O)[C@H](OC)C3)[C@H](C)[C@@H](O)CC1=O)[C@H](C)C[C@@H]2OC,,refers to: CYP3A5,human,,,fraction metabolized,0.67
CCOC(=O)[C@H](CCc1ccccc1)N[C@@H](C)C(=O)N1CCC[C@H]1C(=O)O,,,human,,,fraction absorbed,40%
CO[C@H]1C[C@@H]2CC[C@@H](C)[C@@](O)(O2)C(=O)C(=O)N2CCCC[C@H]2C(=O)O[C@H]([C@H](C)C[C@@H]2CC[C@@H](O)[C@H](OC)C2)CC(=O)[C@H](C)/C=C(\C)[C@@H](O)[C@@H](OC)C(=O)[C@H](C)C[C@H](C)/C=C/C=C/C=C/1C,,,human,,,fraction unbound in plasma,0.08
COC(=O)[C@H]1[C@H]2C[C@@H]3c4[nH]c5cc(OC)ccc5c4CCN3C[C@H]2C[C@@H](OC(=O)c2cc(OC)c(OC)c(OC)c2)[C@@H]1OC,,,human,,,fraction absorbed,50%
C[C@@H]1[C@H](O)[C@@H](C)/C=C/C=C/C=C/C=C/C=C/C=C/C=C/[C@H](O[C@@H]2O[C@H](C)[C@@H](O)[C@H](N)[C@@H]2O)C[C@@H]2O[C@](O)(C[C@@H](O)C[C@@H](O)[C@H](O)CC[C@@H](O)C[C@@H](O)CC(=O)O[C@H]1C)C[C@H](O)[C@H]2C(=O)O,,,human,,,fraction excreted in faeces,43%

# Some of these lines once more:
SMILES,tested on,assay,system,setting,how to read,quantity,value
Nc1cc(C(F)(F)F)c(-c2nc(N3CCOCC3)nc(N3CCOCC3)n2)cn1,"Rho-associated protein kinase 1 (ROCK1, Homo sapiens, UniProt Q13464)",enzyme activity,,10 µM,relative to: untreated,remaining activity,100%
Cc1cc(C)c(CNC(=O)c2cc(Cl)c3c(c2C)O[C@@](C)([C@H]2CC[C@H](N(C)C)CC2)O3)c(=O)[nH]1,,,"human, plasma",,,fraction unbound,0.0548
